Results gathered from unrelated publications.
Compare with care: the assays were run in different laboratories.
Cell line: Vero

Structure (SMILES) | assay | setting | scale | measurement | value
CCCCCCC/C=C/C(=O)N1C(=O)/C(=C(/C)O)C(=O)C1CCC(=O)O (stereo not drawn) | cytotoxicity, CellTiter-Glo | 72 h, 50% viability reduction |  | IC50 | 49.8 µg/mL
CN(CCCN1CCOCC1)c1ccnc2cc(C(F)(F)F)ccc12 | cell growth or viability, resazurin | 72 h |  | CC50 | > 200 µM
O=c1cc(C(F)(F)F)[nH]c2cc(C(F)(F)F)cc(N[C@H]3CC[C@H](C(F)(F)F)CC3)c12 |  | 30 µM, 24 h | baseline: SDS control | LDH release | ~20%
CCN(CC)c1cc2[nH]c(C3CCCCC3)nc2cc1NC(=O)c1ccc(C)cc1 | cytotoxicity, Alamar Blue | 3 days, 37 °C |  | IC50 | > 100 µg/mL
C/C(O)=C1\C(=O)C(CC(C)C)N(C(=O)CCCCCc2ccccc2)C1=O (stereo not drawn) | cytotoxicity, CellTiter-Glo | 72 h, 50% viability reduction |  | IC50 | 11.2 µg/mL
CCC[C@H](NC(=O)CN1C(=O)SC(=Cc2ccc3c(c2)OCO3)C1=O)C(=O)OCC | cell growth or viability, resazurin | 72 h |  | CC50 | > 100 µM
CC(C)C[C@@H](CN1CCOCC1)N(C)c1ccnc2cc(C(F)(F)F)ccc12 | cell growth or viability, resazurin | 72 h |  | CC50 | 68.6 µM
CCCCCCC/C=C/C(=O)N1C(=O)/C(=C(\O)CCCC)C(=O)C1CC(C)C (stereo not drawn) | cytotoxicity, CellTiter-Glo | 72 h, 50% viability reduction |  | IC50 | 5.77 µg/mL
CC(C)C[C@@H](CN1CCCC1)N(C)c1ccnc2cc(C(F)(F)F)ccc12 | cell growth or viability, resazurin | 72 h |  | CC50 | 52 µM
Nc1ncnc2c1ncn2[C@@H]1O[C@H](COS(=O)(=O)NC(=O)CCCCCCCCCCC(=O)O)[C@@H](O)[C@H]1O | cytotoxicity, MTT | 72 h |  | IC50 | > 100 µM
O=c1c(O)c(-c2cc(O)c(O)c(O)c2)oc2cc(O)cc(O)c12 | cell growth or viability, MTT | 24 h |  | CC50 | ~1100 µM
CN(C)c1cc2[nH]c(C3CCCCC3)nc2cc1NC(=O)c1cccs1 | cytotoxicity, Alamar Blue | 3 days, 37 °C |  | IC50 | > 100 µg/mL
CCCCCCC/C=C/C(=O)N1CC(=O)/C(=C(\C)O)C1=O | cytotoxicity, CellTiter-Glo | 72 h, 50% viability reduction |  | IC50 | 39.9 µg/mL
CCN(CC)c1cc2[nH]c(C3CCCCC3)nc2cc1NC(=O)c1ccc(F)cc1F | cytotoxicity, Alamar Blue | 3 days, 37 °C |  | IC50 | > 100 µg/mL
CCCCCCCCCC[C@H](C)C(=O)NS(=O)(=O)OC[C@H]1O[C@@H](n2cnc3c(N)ncnc32)[C@H](O)[C@@H]1O | cytotoxicity, MTT | 72 h |  | IC50 | 14.5 µM
CCN(CC)C[C@H](Cc1ccccc1)N(C)c1ccnc2cc(Cl)ccc12 | cell growth or viability, resazurin | 72 h |  | CC50 | 79 µM
CCCNC(=O)Nc1cc2nc(C3CCCCC3)[nH]c2cc1N1CCCC1 | cytotoxicity, Alamar Blue | 3 days, 37 °C |  | IC50 | > 100 µg/mL
CC(C)C[C@@H](CN1CCCCC1)N(C)c1ccnc2cc(C(F)(F)F)ccc12 | cell growth or viability, resazurin | 72 h |  | CC50 | 42.6 µM
CCCc1ccc(C(=O)Nc2cc3nc(C4CCCCC4)[nH]c3cc2N(C)C)cc1 | cytotoxicity, Alamar Blue | 3 days, 37 °C |  | IC50 | > 100 µg/mL
CCN(CC)C[C@H](CC(C)C)N(C)c1ccnc2cc(Cl)ccc12 | cell growth or viability, resazurin | 72 h |  | CC50 | 60.3 µM
Nc1ncnc2c1ncn2[C@@H]1O[C@H](COS(=O)(=O)NC(=O)CCCCCCCCCCO)[C@@H](O)[C@H]1O | cytotoxicity, MTT | 72 h |  | IC50 | 27 µM
O=C(C=Cc1cccc(Cl)c1)C=Cc1cccc(Cl)c1 | cell growth or viability, MTT | 72 h |  | CC50 | 164 µM
O=C(CCc1ccccc1)Nc1cc2nc(C3CCCCC3)[nH]c2cc1N1CCCC1 | cytotoxicity, Alamar Blue | 3 days, 37 °C |  | IC50 | > 100 µg/mL
CN(c1ccnc2cc(Cl)ccc12)[C@@H](Cc1ccccc1)CN1CCCCC1 | cell growth or viability, resazurin | 72 h |  | CC50 | 69.7 µM
CCCCC(=O)N1C(=O)/C(=C(/C)O)C(=O)C1CC(C)C (stereo not drawn) | cytotoxicity, CellTiter-Glo | 72 h, 50% viability reduction |  | IC50 | 39.7 µg/mL
CCCCOC(=O)Nc1cc2nc(C3CCCCC3)[nH]c2cc1N(C)CCN(C)C | cytotoxicity, Alamar Blue | 3 days, 37 °C |  | IC50 | > 100 µg/mL
O=C1C(=Cc2ccccc2Cl)CCCC1=Cc1ccccc1Cl | cell growth or viability, MTT | 72 h |  | CC50 | 171 µM
NCCCCCCCCCCCC(=O)NS(=O)(=O)OC[C@H]1O[C@@H](n2cnc3c(N)ncnc32)[C@H](O)[C@@H]1O | cytotoxicity, MTT | 72 h |  | IC50 | 42 µM
CCCCNC(=O)Nc1cc2nc(C3CCCCC3)[nH]c2cc1N(CC)CC | cytotoxicity, Alamar Blue | 3 days, 37 °C |  | IC50 | > 100 µg/mL
C/C(O)=C1\C(=O)C(CC(C)C)N(C(=O)C=Cc2ccccc2)C1=O (stereo not drawn) | cytotoxicity, CellTiter-Glo | 72 h, 50% viability reduction |  | IC50 | 30.4 µg/mL

Repeated from above:
Structure (SMILES) | assay | setting | scale | measurement | value
CN(CCCN1CCOCC1)c1ccnc2cc(C(F)(F)F)ccc12 | cell growth or viability, resazurin | 72 h |  | CC50 | > 200 µM
CCC[C@H](NC(=O)CN1C(=O)SC(=Cc2ccc3c(c2)OCO3)C1=O)C(=O)OCC | cell growth or viability, resazurin | 72 h |  | CC50 | > 100 µM
CCN(CC)c1cc2[nH]c(C3CCCCC3)nc2cc1NC(=O)c1ccc(F)cc1F | cytotoxicity, Alamar Blue | 3 days, 37 °C |  | IC50 | > 100 µg/mL
CCCNC(=O)Nc1cc2nc(C3CCCCC3)[nH]c2cc1N1CCCC1 | cytotoxicity, Alamar Blue | 3 days, 37 °C |  | IC50 | > 100 µg/mL
